Results from different studies.
Protocols differ between the studies behind these lines. ± gives the spread as reported.
Organism: Plasmodium falciparum

| Structure (SMILES) | assay | test system | conditions | scale | endpoint | value |
| --- | --- | --- | --- | --- | --- | --- |
| COCC(=O)N1CCC[C@H]1C(=O)NCc1nc(-c2ccccc2)cs1 | SYBR Green growth | asexual blood-stage parasites, 3D7 | 72 h |  | EC50 | > 5000 nM |
| CCn1nccc1Nc1ccnc2ccc(-c3ccc(S(=O)(=O)N4CCOCC4)cc3)cc12 | parasite growth, SYBR Green | D6 |  |  | EC50 | 3400 nM |
| CC1=C(C)/C(=C/c2[nH]c(Cc3ccc(Cl)cc3)cc2Cc2ccc(Cl)cc2)N=C1c1ccc[nH]1 | parasite growth, SYBR Green fluorescence | Tm90-C2B (atovaquone-resistant), asexual blood stage | 72 h |  | IC50 | > 2500 nM |
| COc1ccc(CNc2nc(-c3ccc(C(=O)O)nc3)nc3sc4c(c23)CCCC4)cc1Cl | nanoluciferase readout | 3D7 Hyp1-Nluc | 20 µM, 72 h | relative to: DMSO | parasite growth | 0.235% |
| COCC(=O)N1CCC[C@H](C(=O)NCc2nc(-c3cccc(OC)c3)cs2)C1 | SYBR Green growth | asexual blood-stage parasites, 3D7 | 72 h |  | EC50 | 2100 ± 620 nM |
| O=C(CC1NCCCC1O)Cn1cnc2cc(Br)c(Cl)cc2c1=O (stereo not shown) | parasite growth | conditional knockdown control line | 72 h, added: 12.5 nM anhydrotetracycline |  | IC50 | 0.5 nM |
| Cc1nnc(Nc2ccnc3ccc(-c4ccc(S(=O)(=O)N5CCOCC5)cc4)cc23)nc1C | parasite growth, SYBR Green | W2 |  |  | EC50 | 1300 nM |
| COc1cc(OC)c(CCNC(=O)c2cn3cc(-c4cc(OCC(=O)O)ccc4OC)nc3s2)c(OC)c1 | LDH readout | 3D7 Hyp1-Nluc | 2 µM, 72 h | relative to: DMSO | parasite growth | 92.8% |
| O=C1C(O)=C([C@H]2CC[C@H](c3ccc(Cl)cc3)CC2)C(=O)c2ccccc21 | parasite reduction ratio | 3D7 ring stage | 10-fold IC50 |  | parasite clearance time | 120 h |
| CC1=C(C)/C(=C/c2cc(-c3ccc(OC(F)(F)F)cc3)c(C)[nH]2)N=C1c1ccc[nH]1 | parasite growth, SYBR Green fluorescence | Dd2 (multidrug-resistant), asexual blood stage | 72 h |  | IC50 | 2370 nM |
| O=[N+]([O-])c1ccc(Nc2ccnc3ccc(-c4ccc(S(=O)(=O)N5CCOCC5)cc4)cc23)cn1 | parasite growth, SYBR Green | W2 |  |  | EC50 | 680 nM |
| CCN(CC)CCCC(C)Nc1ccnc2cc(Cl)ccc12 (stereo not shown) | SYBR Green I fluorescence | Dd2 |  |  | MIC90 | > 0.2 µM |
| CNS(=O)(=O)c1ccccc1Nc1nc(Nc2ccc(N3CCOCC3)cc2OC)ncc1Br | nanoluciferase readout | 3D7 Hyp1-Nluc | 2 µM, 72 h | relative to: DMSO | parasite growth | 2.1% |
| CCOCC(=O)N1CCC[C@H](C(=O)NCc2nc(-c3ccc(C#N)nc3)cs2)C1 | SYBR Green growth | asexual blood-stage parasites, 3D7 | 72 h |  | EC50 | 13 ± 10 nM |
| COC1=CC(c2ccc[nH]2)=N/C1=C\c1[nH]c(Cc2ccc(OC(F)(F)F)cc2)cc1Cc1ccc(OC(F)(F)F)cc1 | parasite growth, SYBR Green fluorescence | Dd2 (multidrug-resistant), asexual blood stage | 72 h |  | IC50 | 24.1 nM |
| O=C(NCc1nc(-c2ccccc2)cs1)[C@H]1CCCN(C(=O)c2cccs2)C1 | SYBR Green growth | asexual blood-stage parasites, 3D7 | 72 h |  | EC50 | 890 ± 200 nM |
| O=S(=O)(c1ccc(-c2ccc3ncccc3c2)cc1)N1CCOCC1 | parasite growth, SYBR Green | W2 |  |  | EC50 | > 20000 nM |
| CC/N=C(\c1ccc(OC)c(OC)c1)N1CCCc2cc(C3=NNC(=O)SC3C)ccc21 (stereo not shown) | nanoluciferase readout | 3D7 Hyp1-Nluc | 2 µM, 72 h | relative to: DMSO | parasite growth | 38.4% |
| Oc1cccc(C(Nc2nccs2)c2ccc3cccnc3c2O)c1 (stereo not shown) | erythrocyte invasion |  | 9.02 µM |  | inhibition | 50% |

| Structure (SMILES) | assay | test system | conditions | scale | endpoint | value |
| --- | --- | --- | --- | --- | --- | --- |
| COc1ccc(OCCCO)cc1-c1cn2cc(-c3nnc(NCCCCc4ccccc4)o3)ccc2n1 | nanoluciferase readout | 3D7 Hyp1-Nluc | 2 µM, 72 h | relative to: DMSO | parasite growth | 45.6% |
| Cc1cc(Nc2ccnc3ccc(-c4ccc(S(=O)(=O)N5CCOCC5)cc4)cc23)sn1 | parasite growth, SYBR Green | D6 |  |  | EC50 | 430 nM |
| CNC(C)(C)COCC(=O)N1CCC[C@H](C(=O)NCc2nc(-c3ccc(C(F)(F)F)cc3)cs2)C1 | SYBR Green growth | asexual blood-stage parasites, 3D7 | 72 h |  | EC50 | 18 ± 4.9 nM |
| Cn1cc(-c2cnc3[nH]cc(-c4cn(Cc5cccc(F)c5F)nn4)c3c2)cn1 | schizont egress, Nluc release | Hyp1-Nluc | 10 x growth EC50, 4 h |  | inhibition | 89.2% |
| O=S(=O)(c1ccc(-c2ccc3nccc(Nc4ncc(Cl)cn4)c3c2)cc1)N1CCOCC1 | parasite growth, SYBR Green | D6 |  |  | EC50 | 1000 nM |
| CCOC1=CC(c2ccc[nH]2)=N/C1=C\c1cc(Cc2ccc(OC(F)(F)F)cc2)c(C)[nH]1 | parasite growth, SYBR Green fluorescence | Dd2 (multidrug-resistant), asexual blood stage | 72 h |  | IC50 | 5.88 nM |
| CC1=C(Cn2cc([Si](C)(C)C)nn2)C(=O)c2ccccc2C1=O |  | NF54 |  | relative to: L6 CC50 over IC50 | selectivity index | 2.5 |
| CCc1nc(N)nc(N)c1-c1ccc(Cl)cc1 | parasite reduction ratio | 3D7 |  |  | time to kill 99.9% | 56 h |
| CCOCC(=O)N1CCC[C@H](C(=O)NCc2nc(-c3ccc(-n4cccn4)cc3)cs2)C1 | SYBR Green growth | asexual blood-stage parasites, 3D7 | 72 h |  | EC50 | 8 ± 1.7 nM |
| O=C(CCCCCONC(=O)c1nc(-c2ccccc2[N+](=O)[O-])cs1)NO |  | 3D7 |  | relative to: NFF cells over P. falciparum | selectivity ratio | 6 |
| CNS(=O)(=O)c1ccccc1Nc1nc(Nc2cc(OC)c(OC)cc2C)ncc1Br | schizont egress, Nluc release | Hyp1-Nluc | 10 x growth EC50, 4 h |  | inhibition | 89.3% |
| CCc1nnc(-c2ccc3ccn(CC(=O)Nc4cc(OC)c(OC)c(OC)c4)c3c2)o1 |  | 3D7 ring stage | 10 × EC50 |  | time to undetectable parasitaemia | 72 h |
| CCONC(=O)N1CCC[C@H](C(=O)N[C@@H](C)c2nc(-c3ccc(C#N)cc3)cs2)C1 | SYBR Green growth | asexual blood-stage parasites, 3D7 | 72 h |  | EC50 | 23 ± 1.5 nM |
| CCn1cc(C2CC2)c2c(CN3CCCC(F)(F)C3)n(C)nc2c1=O | parasite growth | 3D7 |  |  | EC50 | 100 nM |
| CCc1nnc(Nc2ccnc3ccc(-c4ccc(S(=O)(=O)N5CCOCC5)cc4)cc23)s1 | parasite growth, SYBR Green | TM91C235 |  |  | EC50 | 1200 nM |
| CC(C)COCC(=O)N1CCC[C@H](C(=O)NCc2nc(-c3ccccc3)cs2)C1 | SYBR Green growth | asexual blood-stage parasites, 3D7 | 72 h |  | EC50 | 740 ± 150 nM |
| O=S(=O)(c1ccc(-c2ccc3nccc(Nc4ccnnc4)c3c2)cc1)N1CCOCC1 | parasite growth, SYBR Green | D6 |  |  | EC50 | 17000 nM |
| COc1cc(C(=O)N(C)C)ccc1-c1cc2nccc(-c3ccc4ccncc4c3)c2o1 | LDH readout | 3D7 Hyp1-Nluc | 20 µM, 72 h | relative to: DMSO | parasite growth | 2.89% |

Excerpt of the above:
| Structure (SMILES) | assay | test system | conditions | scale | endpoint | value |
| --- | --- | --- | --- | --- | --- | --- |
| O=C(CC1NCCCC1O)Cn1cnc2cc(Br)c(Cl)cc2c1=O (stereo not shown) | parasite growth | conditional knockdown control line | 72 h, added: 12.5 nM anhydrotetracycline |  | IC50 | 0.5 nM |
| O=[N+]([O-])c1ccc(Nc2ccnc3ccc(-c4ccc(S(=O)(=O)N5CCOCC5)cc4)cc23)cn1 | parasite growth, SYBR Green | W2 |  |  | EC50 | 680 nM |
| O=S(=O)(c1ccc(-c2ccc3ncccc3c2)cc1)N1CCOCC1 | parasite growth, SYBR Green | W2 |  |  | EC50 | > 20000 nM |
| O=C(NCc1nc(-c2ccccc2)cs1)[C@H]1CCCN(C(=O)c2cccs2)C1 | SYBR Green growth | asexual blood-stage parasites, 3D7 | 72 h |  | EC50 | 890 ± 200 nM |
| CC1=C(C)/C(=C/c2[nH]c(Cc3ccc(Cl)cc3)cc2Cc2ccc(Cl)cc2)N=C1c1ccc[nH]1 | parasite growth, SYBR Green fluorescence | Tm90-C2B (atovaquone-resistant), asexual blood stage | 72 h |  | IC50 | > 2500 nM |
